Measurements of several laboratories.
Compare with care: the assays were run in different laboratories.
Organism: Escherichia coli

With `CC[C@H](C)[C@@H]1NC(=O)CNC(=O)[C@H](CCCNC(=N)N)NC(=O)[C@H](Cc2ccc(O)cc2)NC(=O)[C@@H]2CSSC[C@H](NC1=O)C(=O)N[C@@H](Cc1ccc(O)cc1)C(=O)N[C@@H](CCCNC(=N)N)C(=O)N[C@@H](CCCCN)C(=O)N[C@H](C(=O)N[C@@H](CCCNC(=N)N)C(N)=O)CSSC[C@H](NC(=O)[C@H](Cc1c[nH]c3ccccc13)NC(=O)[C@@H](N)CCCNC(=N)N)C(=O)N[C@@H](Cc1ccccc1)C(=O)N[C@@H](CCCNC(=N)N)C(=O)N[C@@H](C(C)C)C(=O)N2` the MIC was 1.7 µM (broth dilution; K12 BW25113; 18 h, 37 °C).
The MIC of `CCCCCCCC(=O)N[C@@H](CCN)C(=O)N[C@H](C(=O)N[C@@H](CCN)C(=O)N[C@H]1CCNC(=O)[C@H]([C@@H](C)O)NC(=O)[C@H](CCN)NC(=O)[C@H](CCN)NC(=O)[C@H](CCCCCC)NC(=O)[C@@H](Cc2ccccc2)NC(=O)[C@H](CCN)NC1=O)[C@@H](C)O` is reported as 0.5 to 1 µg/mL (broth microdilution; mcr-1, colistin-resistant).
`c1ccc(CCNC2CCCc3c2[nH]c2ccc(C4CCCCC4)cc32)cc1` (centres unmarked) has an MIC of greater than 128 µg/mL (broth microdilution; O-19592).
`CC[C@H](C)[C@H](N)C(=O)N[C@@H](CCCNC(=N)N)C(=O)N[C@H](C(=O)N[C@@H](Cc1c[nH]c2ccccc12)C(=O)N[C@@H](CCCCN)C(=O)N[C@@H](CCCCN)C(=O)N[C@H](C(=O)N[C@H](C(=O)N[C@@H](CCCNC(=N)N)C(=O)N[C@@H](CCCCN)C(=O)N[C@@H](Cc1c[nH]c2ccccc12)C(=O)N[C@@H](CCCCN)C(=O)N[C@@H](C)C(=O)N[C@H](C(=O)N[C@@H](Cc1c[nH]c2ccccc12)C(=O)N[C@@H](Cc1c[nH]cn1)C(N)=O)[C@@H](C)CC)C(C)C)[C@@H](C)CC)C(C)C` gave an MIC of 12.5 µM (broth dilution; ATCC 25922, Mueller-Hinton broth; 24 h, 37 °C).
For `CC[C@H](C)[C@H](NC(=O)[C@@H](NC(=O)[C@H](CCCCN)NC(=O)[C@H](CCC(N)=O)NC(=O)[C@@H](NC(=O)[C@H](Cc1c[nH]c2ccccc12)NC(=O)[C@H](CCCCN)NC(=O)[C@H](CCCCN)NC(=O)[C@H](CC(C)C)NC(=O)[C@H](CCCNC(=N)N)NC(=O)[C@H](Cc1ccccc1)NC(=O)[C@@H](N)C(C)C)[C@@H](C)CC)C(C)C)C(N)=O`, the MIC was 128 µM (24 h, 37 °C, Mueller-Hinton broth, human serum 10%).
The MIC of `OB(O)c1ccc(OCc2ccccc2)nc1F` is reported as greater than 2050 µg/mL (bacterial growth; CTX-M-14 ESBL clinical isolate; without cefotaxime).
The MIC of `CC[C@H](C)[C@H](NC(=O)[C@@H](CCCNC(=N)N)NC(=O)[C@H](CCCNC(=N)N)NC(=O)[C@@H]1CCCN1C(=O)[C@@H]1CCCN1C(=O)[C@H](CCCNC(=N)N)NC(=O)[C@@H]1CCCN1C(=O)[C@H](CCCNC(=N)N)NC(=O)[C@@H]1CCCN1C(=O)[C@H](CC(C)C)NC(=O)[C@H](Cc1c[nH]cn1)NC(=O)[C@@H]1CCCN1C(=O)[C@@H]1CCCN1C(=O)[C@H](CCCCN)NC(=O)[C@H](CC(=O)O)NC(=O)[C@@H](N)C(C)C)C(=O)N[C@@H](Cc1ccc(O)cc1)C(=O)N[C@@H](CC(N)=O)C(=O)N[C@H](CCCNC(=N)N)C(N)=O` is reported as 4 µg/mL (broth microdilution; BW25113; 18 h, 37 °C, 25% MHB2).
`CC(C)C[C@@H](NC(=O)[C@H](NC(=O)[C@@H](CCCCN)NC(=O)[C@@H](CCCCN)NC(=O)[C@@H](CC(C)C)NC(=O)[C@@H](Cc1c[nH]c2ccccc12)NC(=O)[C@@H](CCCCN)NC(=O)[C@@H](Cc1c[nH]c2ccccc12)NC(=O)[C@@H](CC(C)C)NC(=O)[C@@H](CCCCN)NC(=O)[C@@H](CCCCN)NC(=O)[C@H](N)C(C)C)C(C)C)C(N)=O` gave an MIC of 8 µM (24 h, 37 °C, Mueller-Hinton broth, NH4Cl 6 µM).
`CC[C@H](C)[C@H](NC(=O)[C@@H](CCCNC(=N)N)NC(=O)[C@H](CCCNC(=N)N)NC(=O)[C@H](CCCN)NC(=O)[C@H](Cc1c[nH]c2ccccc12)NC(=O)[C@H](CCCNC(=N)N)NC(=O)[C@@H]1CCCN1C(=O)[C@H](CCCNC(=N)N)NC(=O)[C@@H]1CCCN1C(=O)[C@H](CC(C)C)NC(=O)[C@H](Cc1ccc(O)cc1)NC(=O)[C@@H]1CCCN1C(=O)[C@@H]1CCCN1C(=O)[C@H](CCCCN)NC(=O)[C@H](CC(=O)O)NC(=O)[C@@H](N)C(C)C)C(=O)N[C@@H](Cc1ccc(O)cc1)C(=O)N[C@@H](CC(N)=O)C(=O)N[C@H](CCCNC(=N)N)C(N)=O` has an MIC of 8 µg/mL (broth microdilution; ATCC 25922; 18 h, 37 °C, 25% MHB2).
`C=C1NC(=O)C2CSCC3NC(=O)C(CSC(C)C(NC(=S)C(Cc4cnc[nH]4)NC(=O)c4csc(C(C)NC(C)=O)n4)C(=O)N[C@H](CC(C)C(=O)NC(=O)CC(C(=O)O)NC(=O)C(C)NC3=O)C(=O)N2)NC(=O)[C@@H]2CCCN2C(=O)[C@@H](CC(C)C)NC1=O` (some centres unmarked) has an MIC of greater than 32 µg/mL (bacterial growth; ATCC 25922).
`CC[C@H](C)[C@H](NC(=O)[C@@H](CCCNC(=N)N)NC(=O)[C@H](CCCNC(=N)N)NC(=O)[C@H](CCC(=O)O)NC(=O)[C@H](Cc1c[nH]c2ccccc12)NC(=O)[C@H](CCCNC(=N)N)NC(=O)[C@@H]1CCCN1C(=O)[C@H](CCCNC(=N)N)NC(=O)[C@@H]1CCCN1C(=O)[C@H](CC(C)C)NC(=O)[C@H](Cc1ccc(O)cc1)NC(=O)[C@@H]1CCCN1C(=O)[C@@H]1CCCN1C(=O)[C@H](CCCCN)NC(=O)[C@H](CC(=O)O)NC(=O)[C@@H](N)C(C)C)C(=O)N[C@@H](Cc1ccc(O)cc1)C(=O)N[C@@H](CC(N)=O)C(=O)N[C@H](CCCNC(=N)N)C(N)=O` has an MIC of 8 µg/mL (broth microdilution; MC4100; 18 h, 37 °C, 25% MHB2).
The MIC of `c1ccc2c(c1)nc(CNCC13CC4CC(CC(C4)C1)C3)n2CC1CCCCC1` is reported as greater than 128 µg/mL (ATCC 25922).
The MIC of `CC[C@H](C)[C@H](NC(=O)[C@H](CCCNC(=N)N)NC(=O)[C@H](CO)NC(=O)[C@H](Cc1ccc(O)cc1)NC(=O)[C@@H](NC(=O)[C@@H](NC(=O)[C@H](C)NC(=O)CNC(=O)[C@H](CCCCN)NC(=O)[C@H](CCCCN)NC(=O)CCNC(=O)CCCCCNC(=O)[C@H](CCCNC(=N)N)NC(=O)CCCCCNC(=O)[C@H](CCCNC(=N)N)NC(=O)[C@H](CCCNC(=N)N)NC(=O)CCCCCNC(=O)[C@H](CCCNC(=N)N)NC(=O)[C@H](CCCNC(=N)N)NC(=O)CCCCCNC(=O)[C@H](CCCNC(=N)N)NC(=O)[C@H](CCCNC(=N)N)NC(=O)CCCCCNC(=O)[C@@H](N)CCCNC(=N)N)C(C)C)[C@@H](C)O)C(=O)N[C@@H](CO)C(=O)NCC(=O)N[C@@H](CCC(N)=O)C(=O)N[C@@H](Cc1ccc(O)cc1)C(=O)N[C@@H](CCCCN)C(=O)O` is reported as 6 µM (ATCC 25922; 1 h, 37 °C, after 12.5% human serum).
The MIC of `CC[C@H](C)[C@H](NC(=O)[C@@H](CCCNC(=N)N)NC(=O)[C@H](CCCNC(=N)N)NC(=O)[C@@H]1CCCN1C(=O)[C@@H]1CCCN1C(=O)[C@H](Cc1c[nH]c2ccccc12)NC(=O)[C@@H]1CCCN1C(=O)[C@H](CCCNC(=N)N)NC(=O)[C@@H]1CCCN1C(=O)[C@H](CC(C)C)NC(=O)[C@H](Cc1ccc(O)cc1)NC(=O)[C@@H]1CCCN1C(=O)[C@@H]1CCCN1C(=O)[C@H](CCCCN)NC(=O)[C@H](CC(=O)O)NC(=O)[C@@H](N)C(C)C)C(=O)N[C@@H](Cc1ccc(O)cc1)C(=O)N[C@@H](CC(N)=O)C(=O)N[C@H](CCCNC(=N)N)C(N)=O` is reported as 8 µg/mL (broth microdilution; MC4100; 18 h, 37 °C, 25% MHB2).
With `CN[C@@H]1[C@H](O)[C@H](NC)[C@H]2O[C@]3(O)[C@H](O[C@@H]2[C@H]1O)O[C@H](C)C[C@H]3NC(=O)Cc1cc(Cl)ccn1` the MIC was greater than 200 µg/mL (microbial growth, broth dilution; K12).
With `CC[C@H](C)[C@H](NC(=O)[C@H](CC(C)C)NC(=O)[C@H](CCCNC(=N)N)NC(=O)CNC(=O)CNC(=O)[C@H](CCCCN)NC(=O)[C@H](CCCNC(=N)N)NC(=O)[C@H](CC(C)C)NC(=O)[C@H](CC(C)C)NC(=O)[C@H](CCCNC(=N)N)NC(=O)[C@@H](NC(=O)[C@H](CC(C)C)NC(=O)[C@@H](N)CO)[C@@H](C)O)C(=O)NCC(=O)N[C@@H](Cc1c[nH]c2ccccc12)C(=O)N[C@@H](CCCNC(=N)N)C(=O)N[C@@H](Cc1c[nH]c2ccccc12)C(=O)N[C@@H](CCC(=O)O)C(=O)N[C@@H](CCCCN)C(=O)N[C@H](C(=O)N[C@@H](CCCNC(=N)N)C(=O)N[C@@H](CC(N)=O)C(=O)N[C@@H](Cc1c[nH]c2ccccc12)C(=O)N[C@H](C(=O)N[C@@H](CCCNC(=N)N)C(=O)N[C@@H](CCCNC(=N)N)C(=O)N[C@H](C(=O)N[C@H](C(=O)N[C@@H](CCC(=O)O)C(=O)N[C@@H](CCCCN)C(=O)N[C@@H](CCCNC(=N)N)C(=O)N[C@@H](CCCCN)C(=O)N1CCC[C@H]1C(=O)N[C@@H](CC(N)=O)C(=O)N[C@@H](CCCCN)C(=O)O)[C@@H](C)CC)[C@@H](C)CC)[C@@H](C)CC)[C@@H](C)O` the MIC was 8.79 µg/mL (broth microdilution; K88, Mueller-Hinton broth; 37 °C).
`CC1(C)[C@H](NC(=O)/C(=N\OCC(=O)N2CCC[C@@H]2C(=O)O)c2nsc(N)n2)C(=O)N1OS(=O)(=O)O` has an MIC of 16 µg/mL (agar dilution; CDC 1001728, NDM-1).
For `CO[C@@H](C(N)=O)[C@H](NC(=O)c1ccc(NC(=O)[C@@H](N)Cc2ccc(O)cc2)cc1)C(=O)Nc1ccc(C(=O)Nc2ccc(C(=O)Nc3ccc(C(=O)O)c(O)c3OC(C)C)c(O)c2OC(C)C)cc1`, the MIC was greater than 16 µg/mL (pentapeptide repeat protein clone; 16 h, 37 °C).
For `CC[C@H](C)[C@H](NC(=O)[C@@H](CCCNC(=N)N)NC(=O)[C@H](CCCNC(=N)N)NC(=O)[C@@H]1CCCN1C(=O)[C@@H]1CCCN1C(=O)[C@H](CCCNC(=N)N)NC(=O)[C@@H]1CCCN1C(=O)[C@H](CCCNC(=N)N)NC(=O)[C@@H]1CCCN1C(=O)[C@H](CC(C)C)NC(=O)[C@H](Cc1ccccc1)NC(=O)[C@@H]1CCCN1C(=O)[C@@H]1CCCN1C(=O)[C@H](CCCCN)NC(=O)[C@H](CC(=O)O)NC(=O)[C@@H](N)C(C)C)C(=O)N[C@@H](Cc1ccc(O)cc1)C(=O)N[C@@H](CC(N)=O)C(=O)N[C@H](CCCNC(=N)N)C(N)=O`, the MIC was 16 µg/mL (broth microdilution; MC4100; 18 h, 37 °C, 25% MHB2).
The MIC of `CC(C)Oc1c(NC(=O)c2ccc(NC(=O)C(CC(N)=O)NC(=O)c3cc(F)c(N=Nc4c(F)cccc4F)c(F)c3)cc2)ccc(C(=O)NN=Cc2ccc(C(=O)O)cc2)c1O` (centres unmarked) is reported as greater than 6.4 µg/mL (BW25113; dark ground state).

A few entries again:
The MIC of `OB(O)c1ccc(OCc2ccccc2)nc1F` is reported as greater than 2050 µg/mL (bacterial growth; CTX-M-14 ESBL clinical isolate; without cefotaxime).
The MIC of `CC[C@H](C)[C@H](NC(=O)[C@@H](CCCNC(=N)N)NC(=O)[C@H](CCCNC(=N)N)NC(=O)[C@@H]1CCCN1C(=O)[C@@H]1CCCN1C(=O)[C@H](Cc1c[nH]c2ccccc12)NC(=O)[C@@H]1CCCN1C(=O)[C@H](CCCNC(=N)N)NC(=O)[C@@H]1CCCN1C(=O)[C@H](CC(C)C)NC(=O)[C@H](Cc1ccc(O)cc1)NC(=O)[C@@H]1CCCN1C(=O)[C@@H]1CCCN1C(=O)[C@H](CCCCN)NC(=O)[C@H](CC(=O)O)NC(=O)[C@@H](N)C(C)C)C(=O)N[C@@H](Cc1ccc(O)cc1)C(=O)N[C@@H](CC(N)=O)C(=O)N[C@H](CCCNC(=N)N)C(N)=O` is reported as 8 µg/mL (broth microdilution; MC4100; 18 h, 37 °C, 25% MHB2).
